Experimental data gathered from unrelated publications.
Lines come from different studies, so protocols differ. “And” joins repeats or separate records; there may be more than shown.

Compound	cell line	assay	system	setting	how to read	endpoint	value
c1ccc2[nH]ccc2c1	HCT-8	RNA-seq, item: SEMA6C		concentration not given		mRNA level, LS mean	24.3 counts per million
Cc1cc(Nc2ncc(Cl)c(Nc3ccccc3S(=O)(=O)C(C)C)n2)c(OC(C)C)cc1C1CCNCC1	CLB-BAR	phosphoproteomics LC-MS/MS, item: MAPK3 phosphorylation		200 nM, 60 min	reference: untreated	log2 fold change	-4.85
Oc1nc2nonc2cc1Nc1cccc(F)c1	L6			concentration not given		activity	inactive
COc1cccc2c1C(=O)c1c(O)c3c(c(O)c1C2=O)C[C@@](O)(C(=O)CO)C[C@@H]3O[C@H]1C[C@H](N)[C@H](O)[C@H](C)O1	BT-16	cell viability, MTT		10 µM, 72 h		inhibition	88.7%
COc1cnc2cccc(N3CCc4c(cc(Cn5ccnc5C)cc4-c4cn(C)nc4C(F)(F)F)C3=O)c2c1	NCI-H441	cell growth, inhibitor		120 h		EC50	21.6 µM
O=C(/C=C/C=C/C=C/C1CCCCC1)NC1=C[C@@](O)(/C=C/C=C/C=C/C(=O)NC2=C(O)CCC2=O)[C@@H]2O[C@@H]2C1=O	NCI-H1299	cell growth, CellTiter-Glo		78 h		GI50	19.6 µM
CC(C)NCC(O)c1ccc(O)c(O)c1 (centres unmarked)	mouse ventricular cardiomyocytes			dose not given, 0.243 s		sarcomere length	1.8 µm
COc1cc2ncnc(Nc3ccc(Oc4ccccc4)c(C)c3C)c2cc1OC.Cl	MeWo (NF1 mutant)	cell viability		concentration not given, 72 h, together with: trametinib	direction not given	Bliss synergy score	-25.7%
CCCCCCOC(=O)[C@]1(O)C[C@@H]2O[C@@]1(C)n1c3ccccc3c3c4c(c5c6ccccc6n2c5c31)C(=O)NC4	SK-OV-3	ATP	2D monolayer culture	10 µM, 4 days	reference: untreated	relative cell number	48.1%
Cc1cccc(-c2[nH]c(CNc3ccccc3F)nc2-c2ccc3ncnn3c2)n1	MM1.S	XTT		0.2 µM		viability	105% and 100% and 67%
CCc1cnc(N2CCC(c3nc(COc4ccc(-n5cnnn5)cc4)cs3)CC2)nc1	HEK-293T	RNA-seq GSEA, item: HALLMARK_COAGULATION		concentration not given	direction not given	normalized enrichment score	1.14
Clc1nc(NCc2ccco2)c2[nH]cnc2n1	iPSC-derived cardiomyocytes	RNA-seq, item: BPTF chr17 exon ending 67963506		unit not given	reference: DMSO minus compound	ΔPSI	-0.297
Cn1cc(-c2ccc(-c3cncc(Cl)c3N3CCC4(CCNC4=O)CC3)cc2)cn1	COLO 205	microarray, item: DBI		concentration not given, 2 h	reference: untreated cells	fold change in expression	-2.49
C=CC(=O)N1[C@@H](c2ccc3c(c2)OCO3)c2[nH]c3ccccc3c2C[C@H]1C(=O)NC	rat DRG neurons			0.01372 µM, 48 h, together with: vincristine 40 nM		neuron degeneration	80.1% and 79.1%
CC(C)CN(C[C@@H](O)[C@H](Cc1ccccc1)NC(=O)O[C@H]1CCOC1)S(=O)(=O)c1ccc(N)cc1	ΔE-expressing cells	ΔE mislocalization, high-content imaging				maximal efficacy	inactive
Nc1ncnc2c1ncn2[C@@H]1O[C@H](CO)[C@@H](O)[C@H]1O	unstimulated human T cells			100 µM, 72 h	higher = more viable cells	viability	83.7 a.u. and 81.2 a.u. and 75.7 a.u.
CC[C@H](C)C(=O)O[C@H]1CCC=C2C=C[C@H](C)[C@H](CC[C@@H]3C[C@@H](O)CC(=O)O3)[C@H]21	BT-16	cell viability, MTT		10 µM, 72 h		inhibition	94%
CCn1cc(-c2cc(Cn3ccnc3)cc3c2CCN([C@H](c2cc(OC)ccn2)C2CC2)C3=O)c(C(F)(F)F)n1	LoVo	cell growth, inhibitor		120 h		EC50	> 30 µM
c1ccc2c(CCNc3ccc(Nc4ccncc4)cc3)c[nH]c2c1	BT-16	cell viability, MTT		10 µM, 72 h		inhibition	95.5%
Cn1cc(Nc2nccc(-c3ccc4c(c3)CN(C3COC3)CC[C@H]4NC(=O)c3cn(C(C)(C)C)nn3)n2)cn1	mouse splenic B cells	item: LPS-stimulated MAPK signalling		30 mg/kg, IgD-activated in vivo	reference: vehicle, direction not given	pathway activation z-score	2.14
